Experimental data gathered from unrelated publications.
Numbered parts are unrelated; each lists some results of a single study.

Set 1 — technique: aptamer microarray, sandwich; form: DNA with 2'F-ANA; sample: in vitro; concentration: 200 nM; with: Cy3 exosite-II aptamer, 400 nM; direction: higher = stronger binding; oligonucleotide: GGTTGGTGTGGTTGG
Target: Prothrombin, mature alpha-thrombin (F2, Homo sapiens, UniProt P00734)
Notes: whole 15-mer aptamer, many near background
Under “mean fluorescence intensity”, `2'F-ANA at 2 3 4 5 6 7 9 10 11 13 15` is recorded as 52.1 a.u.
`2'F-ANA at 1 2 5 6 8 9 11 12 13 14 15` — result for “mean fluorescence intensity”: 71.2 a.u.
`2'F-ANA at 1 2 4 6 8 9 11 12 15`: “mean fluorescence intensity” 204 a.u.
`2'F-ANA at 3 4 7 10 14 15` — result for “mean fluorescence intensity”: 220 a.u.
`2'F-ANA at 1 5 7 8 10 12 15`: “mean fluorescence intensity” 58.6 a.u.

Set 2 — technique: RNA Bind-n-Seq; form: RNA; sample: in vitro; concentration: 365 nM; baseline: no-protein control; direction: higher = stronger binding
Target: RNA binding protein fox-1 homolog 2, RRM domain, GST-SBP tag (RBFOX2, Homo sapiens, UniProt O43251-10, residues 100-194)
Notes: natural RNA segment, single round, ends assumed
Constant ends, left off below: GGGAGUUCUACAGUCCGACGAUC … UGGAAUUCUCGGGUGCCAA
Residues (chain): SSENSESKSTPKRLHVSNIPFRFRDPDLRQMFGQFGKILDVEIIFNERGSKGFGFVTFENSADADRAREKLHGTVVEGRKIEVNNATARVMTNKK
For `CAUGUGGCAGGAAAGAAGCACCGAUUUCAAGAAUUACUUCCUAGAGAAAGUCAGGAACUAGAGACCAGAGUCUGCAGGAACUUUGCCACUGCCCUUCACUGGCUAAUCCU`, “RBNS enrichment (R)” read 0.723.
`GUCCUGAAUAGCUUACUAUUCUGUCAUGGUAAAACACAGCCUUUCUGUUCAAAUAUUAGGCCAAUCUGUAGGUGGAAAAAUUAACCAAUAAAAUAAAGACAGCUUUGGAA` — result for “RBNS enrichment (R)”: 0.615.
Under “RBNS enrichment (R)”, `UGGAUGUGGCUGCCCAGGAAAAGACUUAACUGUGAAAAAGUACUGAGAACCCACCUGACCCAGGCUUGCCCCAAGCAGAGGCUAGAGAAGAGGCUCCUCUUCUCAGUGUU` is recorded as 0.351.
`CAUGAUCAUGAAUUCCAGUUAAUUUAUAAAGAGGCGAUUUUUGUGUGCCAUUCACACUGGUCUUUUUCACAUUGUUUUGAGCUUAUUGCAGUAUAUGUUUUGGGAUUUUU` — result for “RBNS enrichment (R)”: 0.758.
For `CUCCCUGGGGAACCUACUUUCUGCUCAGUGAGGCUCCGGCCAGAAACCUGGAGUCCUUAUCCUCCCCUCUGUAAGUGUUUUAGGGUCUGGCUUUUGCAGGCACCCUCUGA`, “RBNS enrichment (R)” read 0.723.

Set 3 — technique: protein binding microarray; form: double-stranded DNA, one strand shown; sample: in vitro; concentration: not given; baseline: not given; direction: higher = stronger binding
Target: Histone acetyltransferase KAT6A, both winged helices, GST fusion (KAT6A, Homo sapiens, UniProt Q92794, residues 1-181)
Notes: 8-mer, flanks averaged, mean of 2 arrays, mostly near background
Residues (chain): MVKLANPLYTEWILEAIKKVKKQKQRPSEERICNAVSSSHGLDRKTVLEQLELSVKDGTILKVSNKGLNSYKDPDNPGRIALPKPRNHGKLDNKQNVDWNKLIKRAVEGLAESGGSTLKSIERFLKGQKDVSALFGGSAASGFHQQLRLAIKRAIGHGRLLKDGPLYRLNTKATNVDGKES
The E-score of `GGAGGGCC` is reported as -0.0901.
For `ACTTGACG`, the E-score was 0.0249.
The E-score of `GGGTACCC` is reported as 0.0645.
`AATAGTTC` gave an E-score of -0.00505.
`GGTACTCA` has an E-score of -0.11.
`CAGAAGCA` gave an E-score of -0.215.
For `AGGCCTCG`, the E-score was -0.0277.

Further values, each from its own experiment
For `PhoQ, residues 284 288 289 292 302 303 NLALSC`, the fold induction was 4.64 (PhoP, residues 12 14 15 18 19 NQGLL (Escherichia coli, UniProt P23836); Sort-seq, measured: YFP reporter; E. coli; PhoQ-PhoP variant library, with: 10 µM Mg2+; baseline: high Mg2+ state, higher = stronger signaling).

Some of these lines once more (set 3):
The E-score of `GGGTACCC` is reported as 0.0645.
